# Measured values collected from several papers.
# Numbered parts are unrelated; each lists some results of a single study. Positions count from the first letter of the parent shown.

# Study 1
# Target: Interferon regulatory factor 3, full length, phosphomimetic (IRF3, Homo sapiens, UniProt Q14653, residues 1-427, S386D/S396D/S398D/S402D/T404D/S405D)
# Method: protein-binding microarray
# Molecule type: double-stranded DNA, one strand shown
# Sample: in vitro
# Concentration: 2540 nM top
# Notes: 60-bp whole probe
# With: salmon DNA 0.4 mg/ml
# Baseline: random background probes
# Direction: higher = stronger binding
# Shared flanks, not repeated: GCCTAGCAC … GTCTTGATTCGCTTGACGCTGCTG
# Residues (chain): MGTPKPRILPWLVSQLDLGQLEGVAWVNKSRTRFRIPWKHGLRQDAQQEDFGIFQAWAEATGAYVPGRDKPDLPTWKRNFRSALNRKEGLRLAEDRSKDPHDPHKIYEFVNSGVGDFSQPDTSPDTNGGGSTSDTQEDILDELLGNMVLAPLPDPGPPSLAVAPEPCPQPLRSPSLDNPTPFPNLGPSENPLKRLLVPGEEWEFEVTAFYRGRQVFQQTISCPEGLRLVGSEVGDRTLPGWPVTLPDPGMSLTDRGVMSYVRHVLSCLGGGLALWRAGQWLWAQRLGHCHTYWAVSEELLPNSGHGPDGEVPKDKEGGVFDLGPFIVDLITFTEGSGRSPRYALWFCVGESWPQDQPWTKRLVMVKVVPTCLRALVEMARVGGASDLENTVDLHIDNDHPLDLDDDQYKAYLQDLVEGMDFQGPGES
Sequence,fitted relative affinity
GACGGACTGCTTTTCCTGAAGTGCTAG,-0.211 z-score
GACGGACTGGCCTATCGGGACGTGCTA,-0.774 z-score
TTAGGTTTCGGGAGTGGGTTAGTGCTA,3.03 z-score
ATAGATATCAGTTTCGATTAGTGCTAG,4.92 z-score
TTAGGTATCCTTCGCCTTTAGTGCTAG,1.12 z-score
TTAGGGTTCGGGACTGGGTTAGTGCTA,-0.371 z-score
TTAGGAATCCTTTTCCTTTAGTGCTAG,5.38 z-score
GACGATATCAGTAACGAGACGTGCTAG,0.175 z-score
TTAGATCTCAGACTGGATGAGTGCTAG,0.0271 z-score
TCAGTCATCCATCTGAAACTGTGCTAG,0.317 z-score
TCAATTCTCTACTTGTGACTGTGCTAG,0.801 z-score
GACGGACTGCGTTTCCTGACGTGCTAG,0.305 z-score
GACAAACTGAGACTGGAGACGTGCTAG,-0.309 z-score
GACGTTCTCCTTTTCCTGACGTGCTAG,4.3 z-score
GCCGGACTGCTACTGCTGACGTGCTAG,-0.27 z-score
TTAGGTCTGGGTCTCGGTTAGTGCTAG,-0.687 z-score
GACGCACTGGACTTTCGGGACGTGCTA,0.0689 z-score
TAAGGTATCCTTCTCCTTTAGTGCTAG,7.35 z-score
CACGATATCGGGACTGGAGACGTGCTA,0.137 z-score
GACGGACTGGGAGTGGGGACGTGCTAG,-0.723 z-score
TTAGGTCTCCTACTCCTTTAGTGCTAG,1.95 z-score
TTAGATATTAGTTTCGATTAGTGCTAG,4.39 z-score
GACGGACTGGGGACTGTGGACGTGCTA,-0.855 z-score
GACGATATCGGGTTTTGAGACGTGCTA,0.24 z-score
TCGCACACATACGGCTTCTCGTGCTAG,-0.0553 z-score

# Study 2
# Target: PABPC1L2, full length, GST fusion (mouse, UniProt A0ABA7IW68)
# Method: RNAcompete
# Molecule type: RNA
# Sample: in vitro
# Concentration: 20 nM
# Notes: 7-mer, probes averaged, single round
# Baseline: mean of 7-mers
# Direction: higher = stronger binding
# Residues (chain): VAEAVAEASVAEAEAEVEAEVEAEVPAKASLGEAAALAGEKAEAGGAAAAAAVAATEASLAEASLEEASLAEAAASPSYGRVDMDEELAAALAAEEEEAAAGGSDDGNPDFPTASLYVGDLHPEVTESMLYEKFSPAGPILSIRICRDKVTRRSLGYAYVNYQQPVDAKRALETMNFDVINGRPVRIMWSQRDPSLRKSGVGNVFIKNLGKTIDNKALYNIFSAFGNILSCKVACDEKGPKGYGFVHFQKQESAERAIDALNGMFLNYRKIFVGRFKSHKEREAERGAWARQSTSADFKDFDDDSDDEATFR
Sequence,7-mer Z-score
AACCAUC,-0.161
UUUAAAU,0.552
AUCAAAA,4.62
UUUUAAC,-0.208
AUGGACC,0.046
UGCGUCU,-0.333
AAGUCCG,-0.0301
UUGGAUA,0.133
UUGCACG,-0.284
GAUACUA,-0.104
UAUACCG,-0.24
UCUGUAC,-0.298
GGUAAUA,-0.0663
UAUAUGC,-0.133
UAAGCGU,-0.122

# Study 3
# Target: ABI1, truncated, D143A, DHFR fusion (Arabidopsis thaliana)
# Method: DHFR PCA, deep sequencing
# Sample: yeast
# Notes: methotrexate growth selection, single substitutions
# With: (+)-ABA 0.39 µM
# Baseline: wild-type fitted maximum
# Direction: higher = stronger binding
# Starting sequence: PYL1, truncated, DHFR fusion (Arabidopsis thaliana); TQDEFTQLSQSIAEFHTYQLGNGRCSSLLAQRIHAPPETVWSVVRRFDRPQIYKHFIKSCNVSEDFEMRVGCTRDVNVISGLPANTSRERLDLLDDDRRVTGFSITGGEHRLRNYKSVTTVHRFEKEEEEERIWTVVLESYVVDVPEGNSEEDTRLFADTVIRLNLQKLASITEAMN
Substitution,relative binding score [%]
L166M,0.794
L82E,-2.07
R111W,-0.00851
F56K,-7.54
F56S,-11.2
V43I,57.5
R32T,50.7
L82H,14.9
I133K,30.1
P37G,-5.66
V121H,14.2
H55Y,34.3
M176K,19.2
G108Q,-8.61
R46F,-24.2
Q31C,4.81

# Study 4
# Target: CCNE1, cyclin fold, Cln2 fusion (human)
# Method: yeast growth competition, sequencing
# Sample: yeast
# Notes: weak parent motif
# Baseline: not given
# Direction: higher = stronger binding
# Starting sequence: CDAN1 docking peptide (human); RGARSQLFPPTEA
Substitution,normalised enrichment score
RGARSQLAPPTEA [F8A],0.274
RGARAQLFPPTEA [S5A],0.403
RGAASQLFPPTEA [R4A],-0.0533
RGARSQAFPPTEA [L7A],-0.00706
RGARSQLFAPTEA [P9A],0.0686
RGARSQLFPPAEA [T11A],0.133

# Excerpt of the above (study 1):
Sequence,fitted relative affinity
ATAGATATCAGTTTCGATTAGTGCTAG,4.92 z-score
TTAGGTATCCTTCGCCTTTAGTGCTAG,1.12 z-score
TTAGGGTTCGGGACTGGGTTAGTGCTA,-0.371 z-score
TTAGGAATCCTTTTCCTTTAGTGCTAG,5.38 z-score
GACGATATCAGTAACGAGACGTGCTAG,0.175 z-score
TTAGATCTCAGACTGGATGAGTGCTAG,0.0271 z-score
TCAGTCATCCATCTGAAACTGTGCTAG,0.317 z-score
TCAATTCTCTACTTGTGACTGTGCTAG,0.801 z-score
